{"data": "Assay results from different studies", "cell line": "HEK-293T", "note": "Protocols differ between the studies behind these lines. pIC50: −log10 of the molar value."}
{"SMILES": "CC(C)C(OC(=O)C(C)(C)C)n1nnnc1CCNC(=S)NCCCC[C@H](NS(=O)(=O)c1cccc(F)c1)C(=O)N[C@@H](Cc1c[nH]c2ccccc12)C(=O)NC1CCC1 (some centres unmarked)", "assay": "cell growth or viability, MTT", "setting": "100 µM", "quantity": "inhibition", "result": "< 35%"}
{"SMILES": "COC(=O)C1=Cc2ccccc2S1(=O)=O", "setting": "concentration not given, 6 h", "quantity": "GFPu degradation", "result": "no effect"}
{"SMILES": "Cc1ccc(N=C2CC(=O)c3sc(C)nc3C2=O)cc1", "assay": "H4K20me1 depletion, inhibitor, western blot", "setting": "sustained 3 days", "quantity": "effective single dose", "result": "1 µM"}
{"SMILES": "Cc1cc(C)nc(SCC(=O)Nc2ncc(Cc3cccc(OCc4cn(Cc5ccc(C#N)cc5)nn4)c3)s2)n1", "assay": "cell growth or viability, MTS", "quantity": "GI50", "result": "5.87 µM"}
{"SMILES": "[Cl][Pd-2]1([Cl])[N+](=P(c2ccccc2)(c2ccccc2)c2ccccc2)Cc2cccc[n+]21", "assay": "cell growth, MTT", "scale": "reference: cancer cell lines over HEK-293T", "quantity": "selectivity ratio", "result": "~7.5 fold"}
{"SMILES": "CC1(C)C(=O)N=C2C1=C(O)C(=O)c1ccccc12", "assay": "H4K20me1 level, inhibitor, western blot", "setting": "24 h", "quantity": "effective concentration", "result": "< 5 µM"}
{"SMILES": "O=C(CSc1nc2ccccc2s1)Nc1nonc1[N+](=O)[O-]", "assay": "cell viability, CellTiter-Glo", "quantity": "GI50", "result": "> 40 µM"}
{"SMILES": "[Fe+2].c1ccc(P(=NCc2ccccn2)(c2ccccc2)[c-]2cccc2)cc1.c1ccc(P(=NCc2ccccn2)(c2ccccc2)[c-]2cccc2)cc1", "assay": "cell growth or viability, MTT", "setting": "74 h", "quantity": "pIC50", "result": 4.98}
{"note": "Excerpt of the above:"}
{"SMILES": "[Fe+2].c1ccc(P(=NCc2ccccn2)(c2ccccc2)[c-]2cccc2)cc1.c1ccc(P(=NCc2ccccn2)(c2ccccc2)[c-]2cccc2)cc1", "assay": "cell growth or viability, MTT", "setting": "74 h", "quantity": "pIC50", "result": 4.98}
